Measurements from different studies.
Values joined by “and” are separate records of one study, mostly repeats; a detail may differ.

Compound = [O-][S+]1CCc2nc(N3CCC(c4ncc(Cl)cn4)CC3)nc(NC3(CO)CCC3)c21 (centres unmarked); assay = item: Headache; system = healthy male humans; conditions = 12 mg twice daily; measurement = adverse event incidence; value = 37.5%
Compound = Nc1nc2cc(-c3ccc4ncc(C(=O)N5CCOCC5)n4c3)ccc2o1; system = advanced solid tumour patients; conditions = dose not given, once-daily dosing; scale = relative to: patients; measurement = grade ≥3 drug-related AEs; value = 25%
Compound = Cc1cccc(Cn2nc(C3CC3)c3c(NC(=O)c4cnc5cc(OCCN6CCN(C)CC6)ccn45)cccc32)n1; assay = CTCAE v4.03, item: abdominal pain; system = advanced solid tumour patients; conditions = oral, dose not given, all cohorts, with: pembrolizumab IV every 3 weeks; measurement = all-cause adverse events; value = 26.3%
Compound = O[C@H]1CCCN[C@@H]1CCCn1cnc2c(Cl)c(Cl)ccc21; system = healthy human; conditions = oral, 150 mg twice daily; scale = relative to: single dose; measurement = accumulation index; value = 2.33
Compound = CC(C)C1CCC(N2CCC(N3C(=O)C(=O)c4ccccc43)CC2)CC1 (centres unmarked); system = conscious Sprague-Dawley rat; conditions = intravenous bolus, 100 nmol/kg; measurement = onset of sedation; value = ≤ 15 s
Compound = COc1cc2c(Oc3ccc4[nH]c(C)cc4c3F)ccnc2cc1OCC1(N)CC1; system = paediatric recurrent refractory sarcoma; conditions = 8 mg; measurement = grade 1 or 2 Diarrhoea; value = 0%
Compound = CC[C@H](C)[C@H](NC(=O)[C@H](Cc1ccccc1)NC(=O)[C@H](CCC(=O)O)NC(=O)[C@H](CCCNC(=N)N)NC(=O)[C@H](C)NC(=O)[C@H](C)NC(=O)[C@H](CCC(N)=O)NC(=O)[C@H](CCC(=O)O)NC(=O)[C@H](CCC(=O)O)NC(=O)[C@H](CC(C)C)NC(=O)[C@H](Cc1ccc(O)cc1)NC(=O)[C@H](CO)NC(=O)[C@H](CO)NC(=O)[C@@H](NC(=O)[C@H](CC(=O)O)NC(=O)[C@H](CO)NC(=O)[C@@H](NC(=O)[C@H](Cc1ccccc1)NC(=O)[C@@H](NC(=O)CNC(=O)[C@H](CCC(=O)O)NC(=O)[C@H](C)NC(=O)CCc1cnc[nH]1)[C@@H](C)O)[C@@H](C)O)C(C)C)C(=O)N[C@@H](C)C(=O)N[C@@H](Cc1c[nH]c2ccccc12)C(=O)N[C@@H](CC(C)C)C(=O)N[C@H](C(=O)N[C@@H](CCCNC(=N)N)C(=O)NCC(=O)N[C@@H](CCCNC(=N)N)C(=O)N[C@@H](CCCCNC(=O)COCCOCCNC(=O)COCCOCCNC(=O)CC[C@H](NC(=O)CCCCCCCCCCCCCCCCC(=O)O)C(=O)O)C(=O)NCC(=O)NCC(=O)N[C@@H](CO)C(=O)N[C@@H](CCCCNC(=O)[C@H](CCCCNC(=O)[C@H](CCCCNc1c(NCCCCCN(O)C(=O)CCC(=O)NCCCCCN(O)C(=O)CCC(=O)NCCCCCN(O)C(C)=O)c(=O)c1=O)Nc1c(NCCCCCN(O)C(=O)CCC(=O)NCCCCCN(O)C(=O)CCC(=O)NCCCCCN(O)C(C)=O)c(=O)c1=O)NC(=O)[C@H](CCCCNc1c(NCCCCCN(O)C(=O)CCC(=O)NCCCCCN(O)C(=O)CCC(=O)NCCCCCN(O)C(C)=O)c(=O)c1=O)Nc1c(NCCCCCN(O)C(=O)CCC(=O)NCCCCCN(O)C(=O)CCC(=O)NCCCCCN(O)C(C)=O)c(=O)c1=O)C(=O)O)C(C)C [zirconium-89 labelled]; assay = ex vivo gamma counting; system = Sprague-Dawley rat, male, blood; conditions = intravenous, 1 nmol, 24 h; measurement = tissue uptake; value = 0.465 %ID/g and 0.384 %ID/g
Compound = CCCCCOc1ccc(-c2ccc(-c3ccc(C(=O)N[C@H]4C[C@@H](O)[C@@H](OCC[N+](C)(C)C)NC(=O)[C@@H]5[C@@H](O)[C@@H](C)CN5C(=O)[C@H]([C@@H](C)O)NC(=O)[C@H]([C@H](O)[C@@H](O)c5ccc(O)cc5)NC(=O)[C@@H]5C[C@@H](O)CN5C(=O)[C@H]([C@@H](C)O)NC4=O)cc3)cc2)cc1; system = adult ICU patients, mITT, serum; conditions = dose not given, Follow-up; measurement = alkaline phosphatase; value = 154 U/L
Compound = C[C@@H]1OC(=O)NN=C1c1ccc(-c2ccc(F)cc2)c(C(F)(F)F)c1; assay = phase I trial, item: platelet count decreased; system = human patients; conditions = dose not given, worst grade 4, all doses; measurement = patients with TEAE; value = 20%
Compound = Cc1c(COC(=O)[C@@H]2[C@H](/C=C(\Cl)C(F)(F)F)C2(C)C)cccc1-c1ccccc1 (racemic); assay = item: CYP2C9; system = human, age 5 years, recombinant human CYP2C9; conditions = 0.1 µM; measurement = enzyme contribution to clearance; value = 19.4%
Compound = CCN1[C@@H](C(=O)NC23CCC(C(=O)O)(CC2)CC3)[C@H](c2cccc(Cl)c2F)[C@]2(C(=O)Nc3cc(Cl)ccc32)C12CCCCC2; system = patients with advanced solid tumours; conditions = oral, 100 mg; measurement = Hypercholesterolemia incidence; value = 9.1%
Compound = CC(C)(O)c1cc(Nc2cc(Oc3cn(C4CC4)nc3C3CCOCC3)ccn2)ccn1; assay = Anemia; system = advanced cancer patients, dose escalation; conditions = oral, dose not given, 2 weeks on/off, all causality grade ≥3; measurement = treatment-emergent adverse events; value = 0%
Compound = CO[C@H]1C[C@@H]2CC[C@@H](C)[C@@](O)(O2)C(=O)C(=O)N2CCCC[C@H]2C(=O)O[C@H]([C@H](C)C[C@@H]2CC[C@@H](OC(=O)NCCOCCOCCOCCOCCOCCOCCOCCOCCC(=O)N3CCc4cc(Cn5nc(-c6ccc7oc(N)nc7c6)c6c(N)ncnc65)ccc4C3)[C@H](OC)C2)C[C@@H](O)[C@H](C)/C=C(\C)[C@@H](O)[C@@H](OC)C(=O)[C@H](C)C[C@H](C)/C=C/C=C/C=C/1C; assay = phase 1 dose escalation, item: rash; system = advanced solid tumour patients; conditions = intravenous, 8 mg weekly, any grade; measurement = TRAE incidence; value = 18.8%
Compound = CCOC(=O)C1=C[C@@H](OC(CC)CC)[C@H](NC(C)=O)[C@@H](N)C1; system = Sprague-Dawley rat male, plasma and urine; conditions = oral, 30 mg/kg; measurement = absorption rate constant; value = 0.211 h⁻¹

For quick reference, copied from above:
Compound = COc1cc2c(Oc3ccc4[nH]c(C)cc4c3F)ccnc2cc1OCC1(N)CC1; system = paediatric recurrent refractory sarcoma; conditions = 8 mg; measurement = grade 1 or 2 Diarrhoea; value = 0%
Compound = CC(C)C1CCC(N2CCC(N3C(=O)C(=O)c4ccccc43)CC2)CC1 (centres unmarked); system = conscious Sprague-Dawley rat; conditions = intravenous bolus, 100 nmol/kg; measurement = onset of sedation; value = ≤ 15 s
